Experimental data of several laboratories.
Parts stem from different laboratories: compare values within a part only.

Set 1 — technique: protein-binding microarray; form: double-stranded DNA, one strand shown; matrix: in vitro; concentration: 0.8 µM; notes: whole 60-bp probe, no competitor; direction: higher = stronger binding; constant ends, left off below: … GTCTTGATTCGCTTGACGCTGCTG
Target: Centromere-binding protein 1, full length, N-terminal tag (CBF1, Saccharomyces cerevisiae, UniProt P17106, residues 1-351)
Chain of UniProt P17106 (whole entry, looked up): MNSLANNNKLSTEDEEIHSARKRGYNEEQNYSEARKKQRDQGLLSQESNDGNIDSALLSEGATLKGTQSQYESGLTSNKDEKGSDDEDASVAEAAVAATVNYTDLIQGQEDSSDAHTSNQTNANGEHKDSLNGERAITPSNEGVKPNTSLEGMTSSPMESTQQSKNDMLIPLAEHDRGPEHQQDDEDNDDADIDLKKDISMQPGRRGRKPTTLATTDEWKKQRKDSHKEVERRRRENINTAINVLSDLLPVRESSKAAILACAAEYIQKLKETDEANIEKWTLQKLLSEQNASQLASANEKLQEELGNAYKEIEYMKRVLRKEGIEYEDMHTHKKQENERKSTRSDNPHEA
Strand | fluorescence intensity [a.u.]
CCTAACTACTATAGTGATGACATATAGCTTCGTACA | 558
GAAAAATTGTAACACCACCTTGAAGTGCATTTCTAG | 522
TGTACGAAGCTATATGCCGTGGCTATAGTAGTTAGG | 487
GAAACATGCTATCGTGTCATCATTTCGTGAACTTAG | 569
GAACTTGGTACTTTAGTCGTGATCCTTTGACATTAG | 603
CTAGAAGGAGCGGGTCTGGTGAATAGTGTAAGCTTC | 519
CTAAATACTTCGTCCGTCGTGATATCATTAACTTTC | 602
CTACTGAGAGCGGGTCACGGCCCGCTGAAGGGATTC | 592
GAAAGAAGTGGCAACAACATCAGCAAAAGGGCATAG | 503
GAACCCTTTTTGGTGCACGTTCGCTCGGCGAGTTAG | 656
CTATTACTTCCCGATCTCACATGTTGCCTTCAATTC | 633
CTAAAGACATCTTATCTGCTGATTATACAGATATTC | 555
CCTAACTACTATAAGATCGTGACATAGCTTCGTACA | 712
CTAACTCTGGTGAGACGCGTCACGGTAAAAAAATTC | 909
CCTAACTACTATAAAGATGTGATATAGCTTCGTACA | 550
GAATTTTTATAATATGGTGACATTAAATTAATATAG | 658
GAAGGCTTTTATTAGCATGTGAAATGCTTTGTATAG | 775
CTATTCACCAGGTCACATGGCATCGATGGAAATTTC | 6890

Set 2 — technique: aptamer microarray, sandwich; form: DNA with 2'F-ANA; matrix: in vitro; concentration: 200 nM; added: Cy3 exosite-II aptamer, 400 nM; direction: higher = stronger binding; strand: GGTTGGTGTGGTTGG
Target: Prothrombin, mature alpha-thrombin (F2, Homo sapiens, UniProt P00734)
Notes: whole 15-mer aptamer, many near background
Modification | mean fluorescence intensity [a.u.]
2'F-ANA at 1 4 6 7 8 13 | 89.1
2'F-ANA at 2 4 6 9 11 12 | 378
2'F-ANA at 2 3 9 11 13 14 15 | 344
2'F-ANA at 1 3 5 7 8 9 13 15 | 56.6
2'F-ANA at 7 8 9 10 11 12 13 14 15 | 112
2'F-ANA at 1 2 3 4 5 7 10 13 14 15 | 49.9
2'F-ANA at 1 2 4 5 6 7 9 11 13 14 15 | 58.9
2'F-ANA at 1 5 8 12 13 | 84.7
2'F-ANA at 1 2 3 5 8 10 11 12 14 15 | 49.9
2'F-ANA at 1 3 4 6 8 10 12 15 | 74.7
2'F-ANA at 2 3 6 7 8 9 10 11 12 13 15 | 297
2'F-ANA at 3 5 9 10 11 12 13 14 | 55.9
2'F-ANA at 2 5 6 7 9 11 12 13 14 15 | 102
2'F-ANA at 2 3 6 7 9 13 15 | 464
2'F-ANA at 4 8 9 11 12 13 15 | 295
2'F-ANA at 1 3 4 7 9 10 11 12 13 | 103
2'F-ANA at 1 2 3 4 6 7 8 10 12 13 14 | 55.5
2'F-ANA at 2 6 8 10 14 | 83.7
2'F-ANA at 2 3 4 8 9 | 709
2'F-ANA at 2 3 5 6 7 8 11 12 13 | 150
2'F-ANA at 1 3 5 6 7 8 9 10 11 12 15 | 53.7
2'F-ANA at 1 2 5 6 7 8 9 12 14 15 | 57.7
2'F-ANA at 2 4 5 8 11 13 14 15 | 51.9
2'F-ANA at 1 2 4 7 8 9 10 11 13 15 | 53.7
2'F-ANA at 1 3 5 6 7 9 10 11 12 14 | 52.6

Set 3 — technique: protein binding microarray; form: double-stranded DNA, one strand shown; matrix: in vitro; concentration: not given; baseline: not given; direction: higher = stronger binding
Target: Histone acetyltransferase KAT6A, both winged helices, GST fusion (KAT6A, Homo sapiens, UniProt Q92794, residues 1-181)
Notes: 8-mer, flanks averaged, mean of 2 arrays, mostly near background
Target sequence (chain): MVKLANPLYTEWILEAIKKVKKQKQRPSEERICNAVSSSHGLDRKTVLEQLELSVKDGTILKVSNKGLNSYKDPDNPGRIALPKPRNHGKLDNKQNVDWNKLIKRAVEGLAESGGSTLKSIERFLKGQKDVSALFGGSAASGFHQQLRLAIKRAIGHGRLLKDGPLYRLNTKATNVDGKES
Strand | E-score
CAATCCAG | -0.194
ATTTGGCA | -0.219
ACGCAAAT | 0.0788
GTTGGCGA | 0.141
ACTTGCTA | -0.173
ACGGACGT | 0.143
TAGTGAAA | -0.26
ACCTCCCC | -0.13
ATTATGCC | 0.00159
ATAACCAT | -0.0649
AATCCTAC | -0.181
ATGTCTCA | -0.112
CCGGGTTC | 0.292
CAAAATTA | 0.0371
AGAATCCC | -0.00784
CCCATCAC | -0.184
AGAGACTA | -0.0669
AGCAGAGG | -0.213
CAGCGCTC | 0.22
ATCACGAC | -0.108
AGATAACC | -0.0614
CCTTCGGA | 0.0739
CAAAAAGC | 0.0639
GCCAGCGA | 0.0192
CTCGGATA | 0.07

Set 4 — technique: RNA Bind-n-Seq; form: RNA; matrix: in vitro; concentration: 90 pmol; notes: 4-mer, random 30-nt RNA, single round; baseline: input library; direction: higher = stronger binding
Target: ATP-dependent RNA helicase DDX3X, helicase core (DDX3X, Homo sapiens, UniProt O00571, residues 132-607)
Chain of UniProt O00571 (132-607, looked up): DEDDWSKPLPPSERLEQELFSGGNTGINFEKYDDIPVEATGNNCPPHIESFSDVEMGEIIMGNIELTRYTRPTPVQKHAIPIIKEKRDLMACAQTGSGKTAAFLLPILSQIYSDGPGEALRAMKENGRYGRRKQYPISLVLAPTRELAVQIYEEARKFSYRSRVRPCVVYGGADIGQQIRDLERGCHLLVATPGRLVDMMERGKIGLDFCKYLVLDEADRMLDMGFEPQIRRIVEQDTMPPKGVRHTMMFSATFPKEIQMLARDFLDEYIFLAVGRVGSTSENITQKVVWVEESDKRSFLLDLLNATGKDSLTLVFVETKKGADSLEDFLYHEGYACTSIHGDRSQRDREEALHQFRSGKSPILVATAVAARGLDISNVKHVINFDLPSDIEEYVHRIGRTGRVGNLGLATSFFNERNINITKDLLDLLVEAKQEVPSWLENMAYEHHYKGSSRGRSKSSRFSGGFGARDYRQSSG
Added: 3 µM iPr-DMDA-PatA, 2 mM ADP, 2 mM phosphate
Strand | 4-mer enrichment [fold]
AGCA | 1.05
CCGA | 1.03
GUUC | 0.812
UAUU | 1.15
CAAU | 1.04
AUGC | 0.819
CCAA | 1.22
UCGC | 0.796
GAGA | 1.56
ACGU | 0.917
UAAC | 1.15
CUUA | 0.956
UUAA | 1.3
CUUU | 0.865
UAAG | 1.17
CCGG | 0.769
UUCU | 0.907
CGUU | 0.815
UGGA | 1.06
GAAC | 1.15
GUGU | 0.988

Set 5 — technique: RNA Bind-n-Seq; form: RNA; matrix: in vitro; concentration: 365 nM; baseline: no-protein control; direction: higher = stronger binding
Target: RNA binding protein fox-1 homolog 2, RRM domain, GST-SBP tag (RBFOX2, Homo sapiens, UniProt O43251-10, residues 100-194)
Notes: natural RNA segment, single round, ends assumed
Constant ends, left off below: GGGAGUUCUACAGUCCGACGAUC … UGGAAUUCUCGGGUGCCAA
Residues (chain): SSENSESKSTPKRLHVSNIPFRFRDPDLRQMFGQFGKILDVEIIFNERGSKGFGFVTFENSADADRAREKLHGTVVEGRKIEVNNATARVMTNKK
Strand | RBNS enrichment (R)
AUAAAUAAGGAUCACACUGUAUUAGGGGUUAUGGCAACAUUAUUGAAUUUUUUAUGUACAUAAAGCCAUAUGUUUAGGGUGGUUUCUAUCUGUCUUGUUUUUCACUUAUA | 0.836
UGAUGGUCUUGUAAUCUGAUUUUCUGCAGUCAUACCCCGAGAAAGAAAUUCAAGAAAAAAUGACAUUAAAUCAUCUGUGCAUUUCAUAUACAGGAGAGUUAUCUCCUUCC | 0.42
AAGCAGUUUUUCCUUUUAUUGCAGUUUUUGUUUAUCUGCCAUAGAAUUUCCUUAUACUGUGGCUUGGUAUUAUUCAAGAUUAGCUAUUUCGCUGGUAUUACAUCUUUUUA | 0.818
GUACAUGAGUUAAGCAUACUUGUUGCAUUGUCUCUGCAGAUUCUAUUUUUGUUUACAAUAUUAAAAUGUAUGUUAGCAAAUGGGUGGAUUUUCAAAUAAAAUGCAGCUUC | 0.407
GUUGCAGGGUAACCAUGGUGGGAGGCCAGGAGUUAUCUUAUCUCAUCCUGGACCAAACAGAUAGGCCAGAACCAGCCUGCAUCCUGGGGCUGCUAUGUGGUUCAGUUAAU | 2.16
AAUUCAGGGUCUCAUUUGGAACAUUUUUCCUUUGGGUAGUGGUCAGGAACUGGUGUAAGUCCUCCAGACACAUCCCUGUGUAAGGAAGCCAGGCACUGUUUCUCUGAGUU | 0.269
UGUCCUCAAUUCGUGUGACCAUAAGAUACUGAUAGCAUUGAGUCUUGAAAUGAUUUAAUAAUAUGAGUGAGGAUUUGCUUUCUCCAUUAGAGCAUUAAGCUAAAACUAUC | 0.566
UCCGUAUUGUAAAAUUUUCAUUUUCAGUAACACCCAGUAGAUAAUUUUUCAAAGACGAUCCUCCUCAAACACCCAUUUUUACAAUAUCUCUAUUGUAAAAUUUCAUUUUC | 0.575
ACUCUCCCAAGGAAAAUAUUGCCACCAUUUGUAGACCACGUAACCUUCAAGUAUGUGCUACUUUUUUGUCCCUGUAUCUAACUCAAAUCAGGAACUGUAUUUUUUUUAAU | 0.643
AGAAGUGUUCAUUUUUGUUUUCUUCAUGUAGCUUGUAGAUCAUAAUAAGUAUUUGCUCUUAAAAUUUACUACUUAGUAGCAUGAUUAUUUUUGUUCUGUUGAUGAAGCAA | 0.909
GCCCCUGGUCCUACUCCUGCCUCGGUGAUAGAAGGAGGCAGGGUAAGGGUAUGCCCCUGGCCACUAGAGAUCCUUAGAAACAGGUCUCUGAAGGAAAGGAGAUGCCAGGA | 0.43
UAGUAGAGACCCAGCUGGCCUGGGGUCUGCUUUCCGACAUUUUGCCUCUCUCACUGGUCAUGUAUUUAUUCCAUAUUUAUAUGGUCUACUUCCUGUGGCUGGGAGCAGCA | 0.283

For quick reference, copied from above (set 3):
Strand | E-score
ATGTCTCA | -0.112
AGAGACTA | -0.0669
CAGCGCTC | 0.22
GCCAGCGA | 0.0192
ATTTGGCA | -0.219
ACGGACGT | 0.143
ACGCAAAT | 0.0788
